Measured values pooled from the literature.
Each line is one published result; not all experiments were run side by side. ± gives the spread as reported.

SMILES | tested on | assay | system | conditions | how to read | measurement | value
C[n+]1ccc(/C=N/NC(=O)N/N=C/c2cc[n+](C)c3ccccc23)c2ccccc21 | hp2 hairpin duplex DNA | FRET melting | – | 1 µM, with: ds26 10 µM | – | ΔTm | 0.5 ± 0.1 °C
C=CC(=O)Nc1cccc(Cn2ncc3cnc(Nc4cnn(CCOC)c4)nc32)c1 | human ABL1(F317L)-nonphosphorylated | KINOMEscan | – | 100 nM | relative to: control | binding | 17%
C[n+]1ccc(/C=N/NC(=O)c2cc(C(=O)N/N=C/c3cc[n+](C)c4ccccc34)ncn2)c2ccccc21 | MYC parallel G4 DNA | FRET melting | – | 1 µM, DNA 0.2 µM | – | ΔTm | 2.7 ± 1.1 °C
Cc1ncsc1-c1ccc(C(C)NC(=O)C2CC(O)CN2C(=O)C(NC(=O)CCCCCCCCCCN2CCCC(Nc3ncc(Cl)c(Nc4ccccc4S(=O)(=O)C(C)C)n3)C2)C(C)(C)C)cc1 (centres unmarked) | 22Rv1 | RNA-seq, item: PPP1R3B mRNA | – | concentration not given | relative to: DMSO | log2 fold change | -1.39
COCC/N=C(\S)N/N=C(\C)c1ccccc1O | Mus musculus | gene silencing, high-content imaging | LDR reporter GFP cells | retest, mean of two runs | – | EC50 | 10 µM
O=C(N/N=C/c1cc[n+](Cc2ccccc2)c2ccccc12)c1cccc(C(=O)N/N=C/c2cc[n+](Cc3ccccc3)c3ccccc23)c1 | hp2 hairpin duplex DNA | FRET melting | – | 1 µM, with: ds26 10 µM | – | ΔTm | 0.8 ± 0.2 °C
COC1OC(C)C(O)C(OC2OC(C)C(O)C(OC3OC(C)C(O)C(OC4OC(C)C(O)C(OC5OC(C)C(O)C(OC6OC(C)C(O)C(OC7OC(C)C(O)C(OC8OC(C)C(O)C(OC9OC(C)C(O)C(OC%10OC(C)C(O)C(OC%11OC(C)C(O)C(OS(=O)(=O)O)C%11OS(=O)(=O)O)C%10OS(=O)(=O)O)C9OS(=O)(=O)O)C8OS(=O)(=O)O)C7OS(=O)(=O)O)C6OS(=O)(=O)O)C5OS(=O)(=O)O)C4OS(=O)(=O)O)C3OS(=O)(=O)O)C2OS(=O)(=O)O)C1OS(=O)(=O)O (centres unmarked) | – | – | human plasma | 128 µg/mL | relative to: control | prothrombin time prolongation | 0.96 fold
CNS(=O)(=O)Nc1nccc(Cc2c(C)c3ccc(Oc4ncccc4F)cc3oc2=O)c1F | COLO 205 | cell viability | – | 7 days | – | IC50 | 0.0108 µM
O=[N+]([O-])C(=C\Nc1ccccc1O)/C=N/c1ccccc1O | Mus musculus | gene silencing, high-content imaging | LDR reporter GFP cells | retest run 2 | – | AC50 | 15.8 µM
CC(C)(C)c1cc(-c2ccc3cccnc3n2)nc(-c2ccc3cccnc3n2)c1.[Cl-].[Cl-].[Ru+2].c1cnc2c(c1)ccc1cccnc12 | A-375 | resazurin | – | with: light 523 nm, 20 mW, 100 J/cm2 | – | EC50 | 170 ± 4 µM
C=CC(=O)N1[C@@H](c2ccc3c(c2)OCO3)c2[nH]c3ccccc3c2C[C@H]1C(=O)N1CCN(C)CC1 | human cyclin E1 wild type-3xFLAG:CDK2 | co-IP with TMT proteomics, item: THRAP3 | – | concentration not given, Q9Y2W1 | relative to: wild type DMSO | relative co-enrichment | 105%
COC1OC(C)C(OS(=O)(=O)O)C(OC2OC(C)C(OS(=O)(=O)O)C(OS(=O)(=O)O)C2OS(=O)(=O)O)C1OS(=O)(=O)O (centres unmarked) | – | – | human plasma | 128 µg/mL | relative to: control | prothrombin time prolongation | 0.98 fold
C[n+]1cccc2cc(/C=N/NC(=O)c3ccc4ccc(C(=O)N/N=C/c5ccc6c(ccc[n+]6C)c5)nc4n3)ccc21 | MYC parallel G4 DNA | FRET melting | – | 1 µM, DNA 0.2 µM, with: duplex DNA competitor 10 µM | – | ΔTm | 8.5 ± 0.1 °C
COC1OC(C)C(O)C(OC2OC(C)C(O)C(OC3OC(C)C(O)C(OC4OC(C)C(O)C(OC5OC(C)C(O)C(OC6OC(C)C(O)C(OC7OC(C)C(O)C(OS(=O)(=O)O)C7OS(=O)(=O)O)C6OS(=O)(=O)O)C5OS(=O)(=O)O)C4OS(=O)(=O)O)C3OS(=O)(=O)O)C2OS(=O)(=O)O)C1OS(=O)(=O)O (centres unmarked) | – | – | human plasma | 128 µg/mL | relative to: control | prothrombin time prolongation | 0.99 fold
COc1nc(Nc2nc(O)c3ccccc3n2)nc2ccc(C)cc12 | Mus musculus | gene silencing, high-content imaging | LDR reporter GFP cells | 30 h, retest, mean of two runs | – | Emax | 45%
Nc1ncc(-c2cc(-c3cnn(CC(F)(F)F)c3)ncc2F)nc1C(=O)NC1CNCC(F)C1 (centres unmarked) | PRKR | KINOMEscan competition binding | – | 1 µM | relative to: DMSO control | remaining binding | 82%
CCc1nnc(NC(=O)c2cccc(C(=O)Nc3nnc(CC)s3)n2)s1 | Mus musculus | gene silencing, high-content imaging | LDR reporter GFP cells | retest, mean of two runs | – | EC50 | 20 µM
COC1OC(C)C(OS(=O)(=O)O)C(OC2OC(C)C(OS(=O)(=O)O)C(OC3OC(C)C(OS(=O)(=O)O)C(OC4OC(C)C(OS(=O)(=O)O)C(OC5OC(C)C(OS(=O)(=O)O)C(OS(=O)(=O)O)C5O)C4O)C3O)C2O)C1O (centres unmarked) | – | – | human plasma | 128 µg/mL | relative to: control | prothrombin time prolongation | 0.96 fold
O=C(N/N=C/c1cc[n+](Cc2ccccc2)c2ccccc12)C(=O)N/N=C/c1cc[n+](Cc2ccccc2)c2ccccc12 | MYC parallel G4 DNA | FRET melting | – | 1 µM, DNA 0.2 µM | – | ΔTm | 4.6 ± 0.4 °C
CCN(CC)CC(=O)Nc1cccc(-n2cc(-c3ccc4ccc(-c5cn(-c6cccc(NC(=O)CN(CC)CC)c6)nn5)cc4c3)nn2)c1 | RCC4 | PCR angiogenesis array, item: ANGPTL4 | – | 5 x IC50, 2 h, normoxia | relative to: untreated | fold regulation | -1.49
N=C(S)N/N=C/c1ncc(C(F)(F)F)cc1Cl | Mus musculus | gene silencing, high-content imaging | LDR reporter GFP cells | 30 h, retest, mean of two runs | – | Emax | 87%
O=C(N/N=C/c1ccc(C[n+]2ccccc2)cc1)C(=O)N/N=C/c1ccc(C[n+]2ccccc2)cc1 | MYC parallel G4 DNA | FRET melting | – | 1 µM, DNA 0.2 µM, with: duplex DNA competitor 10 µM | – | ΔTm | 3.1 ± 0.6 °C
C(=N\Nc1nc(-c2ccccn2)nc2ccccc12)/c1ccccc1 | Mus musculus | gene silencing, high-content imaging | LDR reporter GFP cells | retest, mean of two runs | – | EC50 | 5.01 µM
CC[n+]1cccc2cc(/C=N/NC(=O)c3cccc(C(=O)N/N=C/c4ccc5c(ccc[n+]5CC)c4)n3)ccc21 | hp2 hairpin duplex DNA | FRET melting | – | 1 µM | – | ΔTm | 2.5 ± 1 °C
COC1CN([C@H]2CC[C@H]([C@@]3(C)Oc4c(Cl)cc(C(=O)NCc5c(SC)cc(C)[nH]c5=O)c(C)c4O3)CC2)C1 | – | RNA-seq, item: PDE2A mouse homolog | mouse, HT-1376 xenograft, whole blood | dose not given | relative to: vehicle | log2 fold change | 1.94
Cc1ccc(C(C)C)c(OCc2ccc(C(=O)N/N=C/c3cccc(O)c3O)cc2)c1 | Mus musculus | gene silencing, high-content imaging | LDR reporter GFP cells | confirmation, mean of two runs | – | EC50 | 3.98 µM
C[n+]1ccc(/C=N/NC(=O)C(=O)N/N=C/c2cc[n+](C)c3ccccc23)c2ccccc21 | MYC parallel G4 DNA | FRET melting | – | 1 µM, DNA 0.2 µM, with: duplex DNA competitor 10 µM | – | ΔTm | 3.5 ± 0.3 °C
COc1ccc2c(C)nc(Nc3nc(O)cc(-c4ccccc4)n3)nc2c1 | Mus musculus | gene silencing, high-content imaging | LDR reporter GFP cells | 30 h, retest run 1 | – | Emax | 55%
CN1CCCNC(=O)c2cccc(c2)C(=O)NCCCN(C)CCCNc2cccc3c2C(=O)c2cccc(c2C3=O)NCCC1 | SAS | RNA-Seq, item: ERBB2 mRNA | – | 1 µM, 6 h | relative to: untreated cells | log2 fold change | -0.608

Excerpt of the above:
SMILES | tested on | assay | system | conditions | how to read | measurement | value
CNS(=O)(=O)Nc1nccc(Cc2c(C)c3ccc(Oc4ncccc4F)cc3oc2=O)c1F | COLO 205 | cell viability | – | 7 days | – | IC50 | 0.0108 µM
N=C(S)N/N=C/c1ncc(C(F)(F)F)cc1Cl | Mus musculus | gene silencing, high-content imaging | LDR reporter GFP cells | 30 h, retest, mean of two runs | – | Emax | 87%
CN1CCCNC(=O)c2cccc(c2)C(=O)NCCCN(C)CCCNc2cccc3c2C(=O)c2cccc(c2C3=O)NCCC1 | SAS | RNA-Seq, item: ERBB2 mRNA | – | 1 µM, 6 h | relative to: untreated cells | log2 fold change | -0.608
CC(C)(C)c1cc(-c2ccc3cccnc3n2)nc(-c2ccc3cccnc3n2)c1.[Cl-].[Cl-].[Ru+2].c1cnc2c(c1)ccc1cccnc12 | A-375 | resazurin | – | with: light 523 nm, 20 mW, 100 J/cm2 | – | EC50 | 170 ± 4 µM
